Measurements gathered from unrelated publications.
Parts stem from different laboratories: compare values within a part only.

Series 1 — method: protein binding microarray; form: double-stranded DNA, one strand shown; sample: in vitro; tested at: not given; relative to: not given; reading: higher = stronger binding
Target: Histone acetyltransferase KAT6A, both winged helices, GST fusion (KAT6A, Homo sapiens, UniProt Q92794, residues 1-181)
Setting: 8-mer, flanks averaged, mean of 2 arrays, mostly near background
Residues (chain): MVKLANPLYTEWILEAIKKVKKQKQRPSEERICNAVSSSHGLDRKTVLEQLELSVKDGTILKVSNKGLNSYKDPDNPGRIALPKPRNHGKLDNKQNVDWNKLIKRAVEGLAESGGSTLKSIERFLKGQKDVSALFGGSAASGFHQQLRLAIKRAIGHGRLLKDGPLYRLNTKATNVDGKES
Oligonucleotide	E-score
GCTGGTCA	-0.032
ATTCGCTA	-0.000225
ACGGAAGC	0.236
TAGGCTCA	-0.18
CGGTGGGA	0.0485

Series 2 — method: RNAcompete; form: RNA; sample: in vitro; tested at: 20 nM; setting: 7-mer, probes averaged, single round; relative to: mean of 7-mers; reading: higher = stronger binding
Target: PABPC1L2, full length, GST fusion (mouse, UniProt A0ABA7IW68)
Target sequence (chain): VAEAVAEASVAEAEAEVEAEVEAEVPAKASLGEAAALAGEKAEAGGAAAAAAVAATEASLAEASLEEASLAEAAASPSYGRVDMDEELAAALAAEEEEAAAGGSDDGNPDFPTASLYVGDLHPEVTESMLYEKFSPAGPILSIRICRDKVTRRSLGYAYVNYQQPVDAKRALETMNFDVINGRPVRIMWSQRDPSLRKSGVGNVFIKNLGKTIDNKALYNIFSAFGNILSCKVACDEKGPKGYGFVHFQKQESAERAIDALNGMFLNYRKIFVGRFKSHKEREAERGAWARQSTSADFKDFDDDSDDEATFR
Oligonucleotide	7-mer Z-score
GAUUUGA	-0.266
AUGACUA	-0.0192
UUGCGCA	-0.0446

Series 3 — method: universal PBM; form: double-stranded DNA, one strand shown; sample: in vitro; tested at: 600 nM; reading: higher = stronger binding
Target: Sal-like protein 4, full length isoform A (SALL4, Homo sapiens, UniProt Q9UJQ4, residues 1-1053)
UniProt Q9UJQ4, sequence (whole entry, looked up): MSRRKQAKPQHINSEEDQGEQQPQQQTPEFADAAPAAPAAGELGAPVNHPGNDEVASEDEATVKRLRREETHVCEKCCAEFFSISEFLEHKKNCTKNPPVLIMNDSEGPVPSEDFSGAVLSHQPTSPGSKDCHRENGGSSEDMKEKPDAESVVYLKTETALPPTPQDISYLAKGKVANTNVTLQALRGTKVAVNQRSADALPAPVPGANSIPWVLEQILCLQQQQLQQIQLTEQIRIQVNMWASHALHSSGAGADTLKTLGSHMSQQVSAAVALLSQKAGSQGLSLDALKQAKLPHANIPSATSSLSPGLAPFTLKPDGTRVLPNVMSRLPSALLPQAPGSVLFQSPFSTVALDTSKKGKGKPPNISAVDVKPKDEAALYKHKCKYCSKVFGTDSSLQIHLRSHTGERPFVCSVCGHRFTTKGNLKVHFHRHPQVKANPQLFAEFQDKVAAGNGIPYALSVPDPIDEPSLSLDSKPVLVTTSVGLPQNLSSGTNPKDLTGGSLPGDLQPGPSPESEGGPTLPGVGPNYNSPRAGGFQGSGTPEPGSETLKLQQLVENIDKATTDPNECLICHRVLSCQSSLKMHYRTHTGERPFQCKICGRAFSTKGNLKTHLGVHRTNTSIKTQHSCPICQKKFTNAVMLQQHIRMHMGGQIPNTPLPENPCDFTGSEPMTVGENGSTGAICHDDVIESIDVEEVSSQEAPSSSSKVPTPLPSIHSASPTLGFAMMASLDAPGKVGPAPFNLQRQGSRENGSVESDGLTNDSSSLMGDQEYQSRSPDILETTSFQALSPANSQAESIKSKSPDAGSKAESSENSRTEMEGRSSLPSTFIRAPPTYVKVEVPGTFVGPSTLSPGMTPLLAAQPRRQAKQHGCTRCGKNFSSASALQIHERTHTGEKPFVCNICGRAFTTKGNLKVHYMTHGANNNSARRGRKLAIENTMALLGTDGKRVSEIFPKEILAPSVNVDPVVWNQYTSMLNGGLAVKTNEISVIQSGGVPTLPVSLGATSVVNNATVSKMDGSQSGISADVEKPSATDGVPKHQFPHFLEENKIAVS
Setting: 8-mer, flanks averaged, mean of replicates
Oligonucleotide	E-score
AAGGTGCC	-0.194
CGGGGATA	-0.246
CCAACGCA	0.0105
TAGGTTAA	0.214
CGGCTATC	-0.174

Mixed results
Molecule	target	test	system	conditions	scale	quantity	result
PhoQ, residues 284 288 289 292 302 303 SNSSNI	PhoP, residues 12 14 15 18 19 AGCRL (Escherichia coli, UniProt P23836)	Sort-seq, measured: YFP reporter	E. coli	PhoQ-PhoP variant library, added: 10 µM Mg2+	relative to: high Mg2+ state, higher = stronger signaling	fold induction	6.24

Some of these lines once more (series 2):
Oligonucleotide	7-mer Z-score
AUGACUA	-0.0192
